Results gathered from unrelated publications.
Each line is one published result; not all experiments were run side by side. Several values in a cell are separate wells, animals, samples, runs or records. Numbers after ± are the reported error.
HLA class I histocompatibility antigen, A alpha chain allele A*02:01: HLA class I histocompatibility antigen, A alpha chain, allele A*02:01 (Homo sapiens, UniProt P04439)
Chain of UniProt O00482 (whole entry, looked up): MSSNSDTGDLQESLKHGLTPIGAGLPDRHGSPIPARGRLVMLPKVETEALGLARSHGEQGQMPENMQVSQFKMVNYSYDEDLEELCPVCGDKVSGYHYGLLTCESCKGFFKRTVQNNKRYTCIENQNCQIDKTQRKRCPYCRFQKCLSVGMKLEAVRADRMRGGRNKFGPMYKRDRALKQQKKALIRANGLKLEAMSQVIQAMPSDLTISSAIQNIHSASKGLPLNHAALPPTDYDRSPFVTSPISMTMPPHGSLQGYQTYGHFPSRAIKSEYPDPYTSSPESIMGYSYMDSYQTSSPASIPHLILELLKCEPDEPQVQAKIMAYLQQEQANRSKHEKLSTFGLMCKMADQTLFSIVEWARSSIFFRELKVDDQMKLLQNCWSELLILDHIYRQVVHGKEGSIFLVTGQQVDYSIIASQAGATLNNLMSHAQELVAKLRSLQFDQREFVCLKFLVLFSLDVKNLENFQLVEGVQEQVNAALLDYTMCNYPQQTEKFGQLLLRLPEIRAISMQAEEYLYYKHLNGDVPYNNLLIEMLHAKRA
Chain of UniProt P0A7Z4 (whole entry, looked up): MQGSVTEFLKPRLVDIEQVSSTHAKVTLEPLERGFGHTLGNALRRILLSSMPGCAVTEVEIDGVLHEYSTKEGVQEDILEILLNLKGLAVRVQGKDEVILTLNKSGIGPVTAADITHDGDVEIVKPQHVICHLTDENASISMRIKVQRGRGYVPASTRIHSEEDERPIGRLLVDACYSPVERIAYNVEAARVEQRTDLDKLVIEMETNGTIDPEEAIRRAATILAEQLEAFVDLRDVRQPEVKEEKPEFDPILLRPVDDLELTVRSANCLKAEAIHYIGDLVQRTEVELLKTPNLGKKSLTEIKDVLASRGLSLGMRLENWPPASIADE
Chain of UniProt P18206 (whole entry, looked up): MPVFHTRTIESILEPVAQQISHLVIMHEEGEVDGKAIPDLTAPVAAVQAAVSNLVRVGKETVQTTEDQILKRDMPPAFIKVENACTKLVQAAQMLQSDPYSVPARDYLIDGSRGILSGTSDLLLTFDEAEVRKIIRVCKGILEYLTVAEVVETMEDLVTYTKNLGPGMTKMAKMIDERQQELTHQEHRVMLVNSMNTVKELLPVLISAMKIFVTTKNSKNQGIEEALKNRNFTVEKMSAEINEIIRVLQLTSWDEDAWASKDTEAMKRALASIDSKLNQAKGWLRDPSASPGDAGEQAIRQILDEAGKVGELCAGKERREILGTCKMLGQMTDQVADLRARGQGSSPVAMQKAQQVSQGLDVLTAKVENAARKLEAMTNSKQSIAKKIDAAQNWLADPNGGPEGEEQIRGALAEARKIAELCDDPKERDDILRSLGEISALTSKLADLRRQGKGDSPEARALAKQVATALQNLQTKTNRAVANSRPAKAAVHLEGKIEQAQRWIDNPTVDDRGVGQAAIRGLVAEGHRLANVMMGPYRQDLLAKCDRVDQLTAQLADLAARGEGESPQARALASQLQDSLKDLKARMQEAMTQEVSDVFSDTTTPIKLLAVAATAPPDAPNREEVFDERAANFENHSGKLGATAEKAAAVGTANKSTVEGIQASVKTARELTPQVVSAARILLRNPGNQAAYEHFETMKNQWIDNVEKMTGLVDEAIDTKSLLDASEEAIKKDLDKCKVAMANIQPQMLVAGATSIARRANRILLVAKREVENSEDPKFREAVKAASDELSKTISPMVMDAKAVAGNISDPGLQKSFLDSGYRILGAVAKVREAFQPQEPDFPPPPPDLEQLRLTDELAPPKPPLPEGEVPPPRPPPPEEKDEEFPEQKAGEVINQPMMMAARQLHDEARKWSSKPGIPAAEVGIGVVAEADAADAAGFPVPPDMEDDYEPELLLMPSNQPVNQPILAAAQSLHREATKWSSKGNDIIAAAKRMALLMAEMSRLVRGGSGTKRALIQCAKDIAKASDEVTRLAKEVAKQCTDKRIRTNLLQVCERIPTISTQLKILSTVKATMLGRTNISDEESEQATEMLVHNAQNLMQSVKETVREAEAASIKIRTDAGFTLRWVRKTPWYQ
Chain of UniProt P03372 (whole entry, looked up): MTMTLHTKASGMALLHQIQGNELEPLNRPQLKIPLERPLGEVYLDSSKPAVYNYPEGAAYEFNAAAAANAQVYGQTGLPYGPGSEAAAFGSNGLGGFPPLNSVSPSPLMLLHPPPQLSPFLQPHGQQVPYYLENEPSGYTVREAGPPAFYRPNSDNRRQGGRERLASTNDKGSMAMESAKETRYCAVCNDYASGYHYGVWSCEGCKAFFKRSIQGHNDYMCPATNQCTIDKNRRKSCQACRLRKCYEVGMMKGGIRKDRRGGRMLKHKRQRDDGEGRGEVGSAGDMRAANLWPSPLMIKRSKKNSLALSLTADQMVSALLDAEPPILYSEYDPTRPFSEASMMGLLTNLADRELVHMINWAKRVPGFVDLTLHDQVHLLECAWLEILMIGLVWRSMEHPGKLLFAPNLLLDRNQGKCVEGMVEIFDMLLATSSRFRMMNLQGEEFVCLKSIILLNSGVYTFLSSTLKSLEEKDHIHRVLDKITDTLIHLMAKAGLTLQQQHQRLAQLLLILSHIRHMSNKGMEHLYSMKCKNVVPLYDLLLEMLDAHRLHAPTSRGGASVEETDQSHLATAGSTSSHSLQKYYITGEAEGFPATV

| Molecule | tested on | assay | system | setting | how to read | quantity | result |
| --- | --- | --- | --- | --- | --- | --- | --- |
| SVWLRKETRV | human SCRIB PDZ3-4 tandem (MBP fusion) | surface plasmon resonance | peptide | concentration not given | higher = stronger binding | normalised SPR binding response | 107 normalised RU |
| FLAFVPLQL | HLA class I histocompatibility antigen, A alpha chain allele A*02:01 | peptide-MHC stability, brefeldin A chase | peptide, T2 cells |  |  | complex half-life | > 7 h |
| sacituzumab | cynomolgus TROP2 | binding, bio-layer interferometry |  |  |  | Kd | 2.91 nM |
| BODIPY FL GTPγS | TACO1 (Homo sapiens, UniProt Q9BSH4) | nucleotide binding, fluorescence titration |  |  |  | Kd | 25000 nM |
| 11-deoxycorticosterone | human CYP11B2 | stopped-flow kinetic modelling |  | 3-state induced fit model, added: no adrenodoxin |  | Kd | 2340 nM |
| Peginesatide | UT7/EPO | microarray, refers to: SOCS3 mRNA (probe set 227697_at) |  | 20 nM, 90 min | reference: vehicle | mRNA level | 35.1 fold |
| epigallocatechin | Estrogen receptor (ESR1, Homo sapiens, UniProt P03372) | array formation, agonist | ERα-GFP PRL-HeLa | 1 h |  | EC50 | 1240 nM |
| GSGAGKETSF | human MAGI1-3/6 PDZ construct (MBP fusion) | surface plasmon resonance | peptide | concentration not given | higher = stronger binding | normalised SPR binding response | 0 normalised RU |
| WLPFGFILI | HLA class I histocompatibility antigen, A alpha chain allele A*02:01 | peptide-MHC stability, brefeldin A chase | peptide, T2 cells |  |  | complex half-life | 0.99 h |
| colistin | Escherichia coli | broth microdilution | clinical isolate RKI-No_513/16 |  |  | MIC | ≤ 0.5 µg/mL |
| rhodamine-DOPE | Nuclear receptor subfamily 5 group A member 2, ligand-binding domain (NR5A2, Homo sapiens, UniProt O00482) | FRET binding |  | apparent value |  | Kd | 10.2 nM and ~10 nM |
| Rifamycin B | DNA-directed RNA polymerase subunit alpha (rpoA, Escherichia coli, UniProt P0A7Z4) | binding, competition pulldown mass spectrometry | Escherichia coli lysate |  |  | Kd | 82 nM |
| GEMVGQARILAQATSDLVNAIKDA | Vinculin, Vd1 head domain (VCL, Homo sapiens, UniProt P18206) | binding, isothermal titration calorimetry | peptide | 25 °C |  | Kd | 304 ± 63 nM |
| LMDLSTTEV | HLA class I histocompatibility antigen, A alpha chain allele A*02:01 | peptide-MHC stability, brefeldin A chase | peptide, T2 cells |  |  | complex half-life | > 7 h |
| EDQVDPRLIDSK | anti-protein C antibody HPC4, mouse | binding, peptide microarray | peptide | peptide immobilised |  | Kd | 32 nM |
| FMLGEFLKL | HLA class I histocompatibility antigen, A alpha chain allele A*02:01 | peptide-MHC stability, brefeldin A chase | peptide, T2 cells |  |  | complex half-life | > 7 h |
| Phytol | uncharacterized protein (Drosophila suzukii, UniProt A0AB39ZGK5) | bis-ANS displacement, fluorescence competition binding |  | pH 7.4 |  | IC50 | > 50000 nM |
| LMFGAPALV | HLA class I histocompatibility antigen, A alpha chain allele A*02:01 | peptide-MHC stability, brefeldin A chase | peptide, T2 cells |  |  | complex half-life | > 24 h |
| asialo ovine submaxillary mucin | mouse MGL-2 | glycan microarray |  |  |  | Kd | 1.8 ± 0.6 nM |

Repeated from above:
| Molecule | tested on | assay | system | setting | how to read | quantity | result |
| --- | --- | --- | --- | --- | --- | --- | --- |
| FLAFVPLQL | HLA class I histocompatibility antigen, A alpha chain allele A*02:01 | peptide-MHC stability, brefeldin A chase | peptide, T2 cells |  |  | complex half-life | > 7 h |
| sacituzumab | cynomolgus TROP2 | binding, bio-layer interferometry |  |  |  | Kd | 2.91 nM |
| BODIPY FL GTPγS | TACO1 (Homo sapiens, UniProt Q9BSH4) | nucleotide binding, fluorescence titration |  |  |  | Kd | 25000 nM |
